Measured values gathered from unrelated publications.
A part holds a random share of what one study measured. “And” joins repeats or separate records; there may be more than shown.
Sequence of UniProt Q8IY84 (whole entry, looked up): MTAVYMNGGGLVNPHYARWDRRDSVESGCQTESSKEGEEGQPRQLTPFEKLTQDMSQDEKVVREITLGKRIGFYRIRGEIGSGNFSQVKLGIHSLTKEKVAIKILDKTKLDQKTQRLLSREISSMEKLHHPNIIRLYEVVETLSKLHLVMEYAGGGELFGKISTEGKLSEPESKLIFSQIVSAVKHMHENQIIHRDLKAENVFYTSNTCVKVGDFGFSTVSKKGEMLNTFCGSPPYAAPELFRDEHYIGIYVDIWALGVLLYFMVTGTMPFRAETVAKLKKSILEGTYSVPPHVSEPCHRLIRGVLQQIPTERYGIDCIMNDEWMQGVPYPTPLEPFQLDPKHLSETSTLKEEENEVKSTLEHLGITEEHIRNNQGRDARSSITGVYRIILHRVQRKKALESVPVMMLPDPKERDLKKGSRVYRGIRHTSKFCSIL
Sequence of UniProt Q12851 (whole entry, looked up): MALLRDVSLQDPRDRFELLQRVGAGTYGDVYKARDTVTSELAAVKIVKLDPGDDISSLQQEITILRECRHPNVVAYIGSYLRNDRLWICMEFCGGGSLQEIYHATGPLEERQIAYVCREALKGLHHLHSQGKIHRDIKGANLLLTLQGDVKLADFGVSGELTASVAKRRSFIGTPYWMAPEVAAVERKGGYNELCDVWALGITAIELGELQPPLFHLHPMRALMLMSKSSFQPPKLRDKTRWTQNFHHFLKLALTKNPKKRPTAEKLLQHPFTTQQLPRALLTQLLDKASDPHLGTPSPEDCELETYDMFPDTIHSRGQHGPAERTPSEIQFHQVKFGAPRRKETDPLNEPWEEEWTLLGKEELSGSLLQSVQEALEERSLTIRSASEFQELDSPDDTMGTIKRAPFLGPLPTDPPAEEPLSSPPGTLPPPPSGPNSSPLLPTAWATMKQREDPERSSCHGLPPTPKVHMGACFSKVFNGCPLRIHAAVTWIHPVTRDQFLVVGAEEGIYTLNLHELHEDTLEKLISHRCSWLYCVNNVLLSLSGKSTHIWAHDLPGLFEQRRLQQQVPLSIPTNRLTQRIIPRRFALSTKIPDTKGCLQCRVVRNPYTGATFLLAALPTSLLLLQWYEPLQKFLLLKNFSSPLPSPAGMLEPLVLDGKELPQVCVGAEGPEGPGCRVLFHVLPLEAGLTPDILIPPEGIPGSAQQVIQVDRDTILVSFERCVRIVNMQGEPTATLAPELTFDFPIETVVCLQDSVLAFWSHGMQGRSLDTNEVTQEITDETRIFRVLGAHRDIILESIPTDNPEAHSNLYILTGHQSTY
Sequence of UniProt P45984 (whole entry, looked up): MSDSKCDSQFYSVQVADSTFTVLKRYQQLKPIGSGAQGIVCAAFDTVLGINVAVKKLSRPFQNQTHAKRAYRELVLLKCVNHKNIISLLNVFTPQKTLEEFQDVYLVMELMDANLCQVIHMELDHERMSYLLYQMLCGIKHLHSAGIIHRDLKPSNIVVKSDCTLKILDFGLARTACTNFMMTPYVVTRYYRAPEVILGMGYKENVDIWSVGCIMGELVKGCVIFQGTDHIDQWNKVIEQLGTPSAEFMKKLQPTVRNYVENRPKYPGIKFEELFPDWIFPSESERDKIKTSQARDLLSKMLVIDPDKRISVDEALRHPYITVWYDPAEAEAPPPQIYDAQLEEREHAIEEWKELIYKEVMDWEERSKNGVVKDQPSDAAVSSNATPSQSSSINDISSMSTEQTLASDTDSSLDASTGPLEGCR
Sequence of UniProt Q06187 (whole entry, looked up): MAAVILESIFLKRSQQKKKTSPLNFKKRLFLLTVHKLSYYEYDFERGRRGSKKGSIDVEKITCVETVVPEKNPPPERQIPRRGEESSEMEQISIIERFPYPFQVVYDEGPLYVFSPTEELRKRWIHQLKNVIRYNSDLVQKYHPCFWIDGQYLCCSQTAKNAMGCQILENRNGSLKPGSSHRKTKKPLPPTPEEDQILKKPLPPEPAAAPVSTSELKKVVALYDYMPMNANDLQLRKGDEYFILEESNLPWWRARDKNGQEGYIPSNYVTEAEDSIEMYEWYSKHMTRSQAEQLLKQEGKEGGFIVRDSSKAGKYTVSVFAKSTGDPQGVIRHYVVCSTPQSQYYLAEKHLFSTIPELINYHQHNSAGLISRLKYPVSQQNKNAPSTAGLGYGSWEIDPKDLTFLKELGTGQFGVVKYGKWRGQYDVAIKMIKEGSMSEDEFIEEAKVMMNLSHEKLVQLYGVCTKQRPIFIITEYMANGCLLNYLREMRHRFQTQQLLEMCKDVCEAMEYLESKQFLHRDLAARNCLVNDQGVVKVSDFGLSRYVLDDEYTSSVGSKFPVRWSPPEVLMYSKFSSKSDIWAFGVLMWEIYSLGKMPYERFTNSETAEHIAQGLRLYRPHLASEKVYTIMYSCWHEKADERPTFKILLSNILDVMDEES
Sequence of UniProt Q13976 (whole entry, looked up): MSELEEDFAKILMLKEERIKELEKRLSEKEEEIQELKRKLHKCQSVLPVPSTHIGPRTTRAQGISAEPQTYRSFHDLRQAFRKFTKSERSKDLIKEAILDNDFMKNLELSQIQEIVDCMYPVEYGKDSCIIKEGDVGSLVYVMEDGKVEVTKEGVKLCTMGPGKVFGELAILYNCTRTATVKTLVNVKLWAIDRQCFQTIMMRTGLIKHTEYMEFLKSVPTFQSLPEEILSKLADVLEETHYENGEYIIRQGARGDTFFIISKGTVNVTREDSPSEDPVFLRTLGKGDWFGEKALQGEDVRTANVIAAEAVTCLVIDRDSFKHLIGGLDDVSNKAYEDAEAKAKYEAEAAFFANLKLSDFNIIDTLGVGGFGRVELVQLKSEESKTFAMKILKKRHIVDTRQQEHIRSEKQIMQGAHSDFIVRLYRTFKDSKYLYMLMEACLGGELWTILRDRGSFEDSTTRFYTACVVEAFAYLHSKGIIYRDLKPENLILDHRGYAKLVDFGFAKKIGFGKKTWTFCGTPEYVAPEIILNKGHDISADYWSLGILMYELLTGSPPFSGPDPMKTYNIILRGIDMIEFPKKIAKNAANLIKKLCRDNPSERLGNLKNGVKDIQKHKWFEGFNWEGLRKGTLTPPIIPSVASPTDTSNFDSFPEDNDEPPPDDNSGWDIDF
Sequence of UniProt Q02779 (whole entry, looked up): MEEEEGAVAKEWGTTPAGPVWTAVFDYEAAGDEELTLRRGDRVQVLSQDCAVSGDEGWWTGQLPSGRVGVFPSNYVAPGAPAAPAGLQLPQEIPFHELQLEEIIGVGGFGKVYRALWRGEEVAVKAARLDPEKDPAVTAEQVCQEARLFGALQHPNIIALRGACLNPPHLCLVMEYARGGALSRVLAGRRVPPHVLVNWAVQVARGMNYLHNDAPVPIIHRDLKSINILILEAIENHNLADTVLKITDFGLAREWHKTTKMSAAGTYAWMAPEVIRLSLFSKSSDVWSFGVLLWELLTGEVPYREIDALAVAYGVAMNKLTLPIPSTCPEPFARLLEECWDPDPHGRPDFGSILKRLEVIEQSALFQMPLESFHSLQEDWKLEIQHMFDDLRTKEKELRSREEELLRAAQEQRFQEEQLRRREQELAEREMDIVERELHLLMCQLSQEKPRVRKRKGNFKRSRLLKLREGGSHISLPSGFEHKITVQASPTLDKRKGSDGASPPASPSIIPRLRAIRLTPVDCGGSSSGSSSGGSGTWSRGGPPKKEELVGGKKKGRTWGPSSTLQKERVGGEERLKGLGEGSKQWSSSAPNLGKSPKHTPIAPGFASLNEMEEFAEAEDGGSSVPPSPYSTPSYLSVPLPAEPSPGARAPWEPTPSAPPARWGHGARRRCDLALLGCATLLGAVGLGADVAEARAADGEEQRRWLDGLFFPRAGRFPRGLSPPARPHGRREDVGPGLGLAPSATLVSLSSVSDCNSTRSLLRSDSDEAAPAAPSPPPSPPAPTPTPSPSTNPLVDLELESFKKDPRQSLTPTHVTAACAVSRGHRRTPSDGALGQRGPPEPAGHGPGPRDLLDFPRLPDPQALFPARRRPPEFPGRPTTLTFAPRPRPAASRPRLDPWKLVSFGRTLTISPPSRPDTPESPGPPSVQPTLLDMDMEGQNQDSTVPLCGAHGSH
Sequence of UniProt P54756 (whole entry, looked up): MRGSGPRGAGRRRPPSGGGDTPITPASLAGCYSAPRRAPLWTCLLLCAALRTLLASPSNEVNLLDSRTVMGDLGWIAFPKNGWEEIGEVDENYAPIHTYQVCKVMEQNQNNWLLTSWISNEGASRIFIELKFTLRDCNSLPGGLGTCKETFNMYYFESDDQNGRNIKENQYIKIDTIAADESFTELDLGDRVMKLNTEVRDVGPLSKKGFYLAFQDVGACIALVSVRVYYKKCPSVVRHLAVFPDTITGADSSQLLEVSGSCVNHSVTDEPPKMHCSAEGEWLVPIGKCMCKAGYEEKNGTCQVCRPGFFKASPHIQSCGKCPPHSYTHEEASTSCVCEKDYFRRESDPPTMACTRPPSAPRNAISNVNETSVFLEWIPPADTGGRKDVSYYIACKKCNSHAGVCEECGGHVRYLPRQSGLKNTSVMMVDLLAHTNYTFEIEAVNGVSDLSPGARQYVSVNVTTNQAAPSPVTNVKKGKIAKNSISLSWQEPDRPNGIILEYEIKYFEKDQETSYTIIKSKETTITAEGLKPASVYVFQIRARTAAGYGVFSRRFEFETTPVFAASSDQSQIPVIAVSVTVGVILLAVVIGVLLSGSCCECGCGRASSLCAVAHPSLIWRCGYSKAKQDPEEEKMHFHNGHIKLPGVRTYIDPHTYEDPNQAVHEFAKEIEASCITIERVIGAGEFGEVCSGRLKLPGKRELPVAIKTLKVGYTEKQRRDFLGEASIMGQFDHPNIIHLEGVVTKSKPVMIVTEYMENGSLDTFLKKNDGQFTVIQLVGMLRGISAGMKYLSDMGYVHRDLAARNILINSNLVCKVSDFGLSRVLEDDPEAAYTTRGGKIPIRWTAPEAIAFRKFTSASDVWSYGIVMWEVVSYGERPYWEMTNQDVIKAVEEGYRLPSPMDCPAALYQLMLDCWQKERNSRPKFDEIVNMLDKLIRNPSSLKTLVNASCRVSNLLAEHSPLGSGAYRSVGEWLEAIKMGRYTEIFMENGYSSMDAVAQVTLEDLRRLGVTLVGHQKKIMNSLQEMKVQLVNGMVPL

Sample 1
Cell line: HaCaT
Concentration: 100 µM
Time: 36 h
Structure (SMILES)	viability
CCN(CC)CCOC(=O)c1ccc(N)cc1	90.5%
CC(=O)N[C@H]1[C@H]([C@H](O)[C@H](O)CO)OC(C(=O)O)=C[C@@H]1N=C(N)N	79.1%
NC(=O)c1ncn([C@@H]2O[C@H](CO)[C@@H](O)[C@H]2O)n1	70.4%
CC1=C(/C=C/C(C)=C/C=C/C(C)=C/C(=O)O)C(C)(C)CCC1	61%

Sample 2
Cell line: HuT78
Concentration: 2 µM
Time: 48 h
Relative to: untreated
Compound	viability [%]
CNC(=O)Nc1ccc(-c2nc(N3CC4CCC(C3)O4)c3cnn(C4CCC5(CC4)OCCO5)c3n2)cc1	32.9
O=C1NC(=O)/C(=C/c2cccc(C(F)(F)F)c2)S1	142
C[C@@H](Oc1cc(-c2cnn(C3CCNCC3)c2)cnc1N)c1c(Cl)ccc(F)c1Cl	99.5
C[C@@H](N)[C@H]1CC[C@H](C(=O)Nc2ccncc2)CC1	141

Sample 3
SMILES: COc1cc2ncnc(Nc3ccc(Oc4ccccc4)cc3)c2cc1OC
Observed: enzyme activity
Action: inhibitor
Concentration: 0.5 µM
Relative to: control
target	remaining activity [%]
BTK (Homo sapiens, UniProt Q06187)	38.8
MAP2K6 (Homo sapiens, UniProt P52564)	102
PRKCD (Homo sapiens, UniProt Q05655)	96.8
MKNK2 (Homo sapiens, UniProt Q9HBH9)	47.9
WNK2 (Homo sapiens, UniProt Q9Y3S1)	88.1
MAPK13 (Homo sapiens, UniProt O15264)	103
EPHA5 (Homo sapiens, UniProt P54756)	85.3
Cyclin-dependent kinase 9, with cyclin T1 (CDK9, Homo sapiens, UniProt P50750)	86.7
MAP4K2 (Homo sapiens, UniProt Q12851)	104
CHEK1 (Homo sapiens, UniProt O14757)	97.4
MAP3K10 (Homo sapiens, UniProt Q02779)	96.7
IRAK4 (Homo sapiens, UniProt Q9NWZ3)	112
KIT (Homo sapiens, UniProt P10721)	75.6
AKT3 (Homo sapiens, UniProt Q9Y243)	105
PRKG1 (Homo sapiens, UniProt Q13976)	92.5

Sample 4
Compound: O=C(Nc1cccnn1)N1CC(C/C=C/c2cncc(Oc3ccc(C(F)(F)F)cn3)n2)C1
Observed: cell-free assay
Method: competition with immobilised ligand
Concentration: 1 µM
target	remaining binding [%]
MAPK9 (Homo sapiens, UniProt P45984)	72
PHKG1 (Homo sapiens, UniProt Q16816)	100
EGFR (Homo sapiens, UniProt P00533)	99
GRK3 (Homo sapiens, UniProt P35626)	100
OXSR1 (Homo sapiens, UniProt O95747)	71
NIM1K (Homo sapiens, UniProt Q8IY84)	76

Other studies, line by line
Structure (SMILES)	host	dose	time	setting	endpoint	value
CC(C)n1cnc(-c2ccc(F)cc2)c1-c1ncc(C(=O)Nc2ccc(N3CCN(C)CC3)cc2)[nH]1	IPF patients	30 mg once daily	–	adverse event	cardiac failure incidence	0%
CN(N=O)C(=O)N[C@@H]1[C@@H](O)[C@H](O)[C@@H](CO)O[C@@H]1O	mice, STZ diabetic neuropathy	dose not given	7 days after STZ	–	blood glucose	469 mg/dL and 406 mg/dL and 558 mg/dL and 325 mg/dL and 446 mg/dL

A few entries again (sample 3):
target	remaining activity [%]
WNK2 (Homo sapiens, UniProt Q9Y3S1)	88.1
MAPK13 (Homo sapiens, UniProt O15264)	103
EPHA5 (Homo sapiens, UniProt P54756)	85.3
